Measurements pooled from the literature.
Lines come from different studies, so protocols differ.
slo: slo (Streptococcus pyogenes, UniProt P0C0I3)
UniProt P34972, sequence (whole entry, unmodified, looked up): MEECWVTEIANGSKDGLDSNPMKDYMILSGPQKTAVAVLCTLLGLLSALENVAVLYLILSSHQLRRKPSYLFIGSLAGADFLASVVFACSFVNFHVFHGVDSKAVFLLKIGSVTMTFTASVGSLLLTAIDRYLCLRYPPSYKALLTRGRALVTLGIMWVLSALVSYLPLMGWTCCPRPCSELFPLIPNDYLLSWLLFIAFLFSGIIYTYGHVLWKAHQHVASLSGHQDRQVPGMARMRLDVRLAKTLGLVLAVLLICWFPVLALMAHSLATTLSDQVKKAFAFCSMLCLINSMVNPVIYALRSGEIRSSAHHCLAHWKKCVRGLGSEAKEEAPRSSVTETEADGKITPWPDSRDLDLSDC
UniProt P0C0I3, sequence (whole entry, looked up): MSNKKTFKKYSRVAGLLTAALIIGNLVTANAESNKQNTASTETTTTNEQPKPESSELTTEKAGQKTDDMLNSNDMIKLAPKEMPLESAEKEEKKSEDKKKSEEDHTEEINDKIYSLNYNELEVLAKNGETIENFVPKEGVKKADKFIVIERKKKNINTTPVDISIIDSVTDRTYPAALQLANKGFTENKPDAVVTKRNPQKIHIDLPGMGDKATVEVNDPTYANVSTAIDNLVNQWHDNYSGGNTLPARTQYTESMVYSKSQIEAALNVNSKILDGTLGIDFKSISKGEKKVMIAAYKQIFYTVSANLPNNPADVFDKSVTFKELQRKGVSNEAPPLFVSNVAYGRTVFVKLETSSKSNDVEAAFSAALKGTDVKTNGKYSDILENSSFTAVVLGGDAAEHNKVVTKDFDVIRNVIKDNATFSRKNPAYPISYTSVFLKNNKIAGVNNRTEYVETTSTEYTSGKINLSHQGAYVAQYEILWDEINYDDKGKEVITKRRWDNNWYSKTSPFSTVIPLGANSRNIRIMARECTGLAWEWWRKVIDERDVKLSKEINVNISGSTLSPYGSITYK
UniProt P40337, sequence (whole entry, looked up): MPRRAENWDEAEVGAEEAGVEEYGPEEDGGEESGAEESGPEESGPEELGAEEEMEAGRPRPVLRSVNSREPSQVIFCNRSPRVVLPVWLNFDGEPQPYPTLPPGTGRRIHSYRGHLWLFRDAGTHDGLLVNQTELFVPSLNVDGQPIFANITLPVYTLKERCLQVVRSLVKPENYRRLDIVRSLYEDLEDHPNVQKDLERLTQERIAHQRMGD
UniProt P08172, sequence (whole entry, looked up): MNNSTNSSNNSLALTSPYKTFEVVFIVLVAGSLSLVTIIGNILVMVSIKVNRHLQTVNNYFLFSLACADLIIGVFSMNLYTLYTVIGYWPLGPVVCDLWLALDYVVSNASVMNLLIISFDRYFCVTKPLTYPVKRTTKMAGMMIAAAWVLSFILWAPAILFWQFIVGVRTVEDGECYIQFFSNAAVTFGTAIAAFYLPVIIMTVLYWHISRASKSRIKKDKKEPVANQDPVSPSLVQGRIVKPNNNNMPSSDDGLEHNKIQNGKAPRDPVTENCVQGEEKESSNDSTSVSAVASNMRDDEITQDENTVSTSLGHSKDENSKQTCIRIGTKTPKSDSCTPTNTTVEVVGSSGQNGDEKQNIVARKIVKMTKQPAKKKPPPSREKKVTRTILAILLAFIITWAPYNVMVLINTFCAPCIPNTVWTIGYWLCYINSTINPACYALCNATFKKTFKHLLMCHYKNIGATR
UniProt P05177, sequence (whole entry, looked up): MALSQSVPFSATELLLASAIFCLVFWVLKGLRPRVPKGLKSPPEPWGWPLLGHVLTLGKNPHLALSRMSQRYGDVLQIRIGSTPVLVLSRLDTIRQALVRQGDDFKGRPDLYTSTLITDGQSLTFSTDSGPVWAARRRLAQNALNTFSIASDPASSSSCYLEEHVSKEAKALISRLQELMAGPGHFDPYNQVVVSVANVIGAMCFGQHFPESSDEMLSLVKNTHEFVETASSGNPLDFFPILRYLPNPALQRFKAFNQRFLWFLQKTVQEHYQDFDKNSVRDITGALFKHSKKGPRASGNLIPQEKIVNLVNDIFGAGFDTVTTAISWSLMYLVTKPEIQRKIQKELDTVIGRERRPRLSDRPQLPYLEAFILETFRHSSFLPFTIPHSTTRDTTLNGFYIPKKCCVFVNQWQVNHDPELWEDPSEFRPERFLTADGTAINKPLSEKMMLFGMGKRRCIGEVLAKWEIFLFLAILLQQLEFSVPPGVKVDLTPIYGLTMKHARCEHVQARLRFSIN
UniProt Q9Y2R2, sequence (whole entry, looked up): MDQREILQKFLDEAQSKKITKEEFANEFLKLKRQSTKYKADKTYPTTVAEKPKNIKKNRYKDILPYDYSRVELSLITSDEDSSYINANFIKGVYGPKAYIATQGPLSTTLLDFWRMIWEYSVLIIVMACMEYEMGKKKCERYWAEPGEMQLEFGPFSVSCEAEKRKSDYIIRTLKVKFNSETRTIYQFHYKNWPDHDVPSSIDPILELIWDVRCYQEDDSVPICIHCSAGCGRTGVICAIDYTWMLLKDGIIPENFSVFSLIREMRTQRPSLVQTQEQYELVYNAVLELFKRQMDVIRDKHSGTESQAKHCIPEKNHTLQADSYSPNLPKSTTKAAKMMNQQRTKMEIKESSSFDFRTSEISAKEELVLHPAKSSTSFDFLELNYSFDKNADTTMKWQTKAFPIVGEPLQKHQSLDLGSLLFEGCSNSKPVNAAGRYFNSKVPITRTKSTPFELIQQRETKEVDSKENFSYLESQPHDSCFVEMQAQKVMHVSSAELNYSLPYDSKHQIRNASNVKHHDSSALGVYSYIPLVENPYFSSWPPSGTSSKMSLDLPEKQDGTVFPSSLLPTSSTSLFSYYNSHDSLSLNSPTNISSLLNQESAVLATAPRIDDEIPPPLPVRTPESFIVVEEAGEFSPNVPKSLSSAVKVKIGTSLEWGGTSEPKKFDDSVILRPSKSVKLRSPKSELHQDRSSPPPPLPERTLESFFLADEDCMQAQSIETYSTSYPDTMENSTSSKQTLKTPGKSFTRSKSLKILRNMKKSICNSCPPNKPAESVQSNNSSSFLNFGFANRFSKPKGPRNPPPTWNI
UniProt P28221, sequence (whole entry, looked up): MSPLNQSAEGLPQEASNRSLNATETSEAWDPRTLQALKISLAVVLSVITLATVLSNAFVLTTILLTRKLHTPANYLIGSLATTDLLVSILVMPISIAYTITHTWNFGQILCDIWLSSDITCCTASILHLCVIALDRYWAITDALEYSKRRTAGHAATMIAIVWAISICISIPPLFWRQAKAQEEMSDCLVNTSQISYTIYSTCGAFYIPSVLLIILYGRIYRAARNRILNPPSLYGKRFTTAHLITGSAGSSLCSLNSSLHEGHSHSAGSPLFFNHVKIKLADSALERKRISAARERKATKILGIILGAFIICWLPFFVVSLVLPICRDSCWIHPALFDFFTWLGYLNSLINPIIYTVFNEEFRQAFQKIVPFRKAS
UniProt Q9GZQ6, sequence (whole entry, looked up): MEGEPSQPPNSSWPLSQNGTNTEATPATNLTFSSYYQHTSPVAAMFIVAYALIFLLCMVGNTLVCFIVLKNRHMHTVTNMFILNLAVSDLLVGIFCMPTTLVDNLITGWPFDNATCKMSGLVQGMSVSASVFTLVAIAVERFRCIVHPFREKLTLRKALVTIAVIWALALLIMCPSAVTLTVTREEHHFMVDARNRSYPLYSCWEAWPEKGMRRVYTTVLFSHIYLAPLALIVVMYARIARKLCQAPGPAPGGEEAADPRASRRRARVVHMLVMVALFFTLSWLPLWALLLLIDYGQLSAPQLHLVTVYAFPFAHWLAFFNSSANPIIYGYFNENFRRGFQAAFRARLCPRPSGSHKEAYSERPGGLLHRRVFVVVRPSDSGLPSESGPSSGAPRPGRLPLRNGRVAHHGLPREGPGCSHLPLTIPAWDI
UniProt P31645, sequence (whole entry, looked up): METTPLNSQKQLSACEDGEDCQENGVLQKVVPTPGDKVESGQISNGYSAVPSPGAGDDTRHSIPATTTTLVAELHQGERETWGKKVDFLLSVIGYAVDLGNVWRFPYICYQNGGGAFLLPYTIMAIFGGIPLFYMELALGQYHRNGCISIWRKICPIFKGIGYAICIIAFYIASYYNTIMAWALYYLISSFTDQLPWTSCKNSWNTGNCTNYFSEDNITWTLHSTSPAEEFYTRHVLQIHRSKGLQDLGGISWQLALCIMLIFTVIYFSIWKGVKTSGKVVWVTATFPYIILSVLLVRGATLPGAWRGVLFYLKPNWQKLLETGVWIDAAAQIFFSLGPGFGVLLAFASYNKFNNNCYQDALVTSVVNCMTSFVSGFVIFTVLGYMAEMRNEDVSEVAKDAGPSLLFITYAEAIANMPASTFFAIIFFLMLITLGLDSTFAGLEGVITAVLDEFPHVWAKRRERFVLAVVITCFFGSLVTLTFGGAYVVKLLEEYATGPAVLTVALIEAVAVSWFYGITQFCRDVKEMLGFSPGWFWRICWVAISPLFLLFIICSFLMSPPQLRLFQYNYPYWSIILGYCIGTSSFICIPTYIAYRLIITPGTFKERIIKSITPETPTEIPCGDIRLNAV
UniProt P23977, sequence (whole entry, looked up): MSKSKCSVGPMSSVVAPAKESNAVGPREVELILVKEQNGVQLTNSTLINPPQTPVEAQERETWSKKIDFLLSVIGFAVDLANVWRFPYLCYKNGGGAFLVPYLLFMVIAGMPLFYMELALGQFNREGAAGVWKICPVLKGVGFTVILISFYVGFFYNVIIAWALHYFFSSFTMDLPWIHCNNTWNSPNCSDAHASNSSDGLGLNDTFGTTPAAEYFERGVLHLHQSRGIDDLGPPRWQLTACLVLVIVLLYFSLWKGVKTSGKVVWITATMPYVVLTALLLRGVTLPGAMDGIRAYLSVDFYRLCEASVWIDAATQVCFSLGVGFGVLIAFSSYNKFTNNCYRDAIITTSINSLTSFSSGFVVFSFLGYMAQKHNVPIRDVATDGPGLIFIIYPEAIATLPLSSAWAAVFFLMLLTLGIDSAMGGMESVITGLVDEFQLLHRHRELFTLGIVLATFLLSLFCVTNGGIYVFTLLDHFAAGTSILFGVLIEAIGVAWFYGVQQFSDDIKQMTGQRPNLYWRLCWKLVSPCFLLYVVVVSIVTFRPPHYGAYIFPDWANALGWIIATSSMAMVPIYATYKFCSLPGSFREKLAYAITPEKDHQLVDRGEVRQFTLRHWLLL

CCCCCn1cc(C(=O)c2cccc3c2CC(C)(C)C3)c2ccccc21
EC50 (CNR2 (Homo sapiens, UniProt P34972); G protein activation, agonist, BRET): 1380 nM

CC(=O)NC1C(OC2C(O)C(O)OC(CO)C2O)OC(CO)C(O)C1OC1OC(CO)C(O)C(O)C1OC1OC(C)C(O)C(O)C1O (stereo not drawn)
Kd (slo; binding): 2600 nM

CCCCCCCCCC(=O)N[C@@H](CCCNC(=N)N)C(=O)N[C@H](C(=O)N[C@@H](CCCCN)C(=O)N[C@@H](CCCNC(=N)N)C(=O)CCl)C(C)C
EC50 (Proprotein convertase subtilisin/kexin type 4 (Pcsk4, Mus musculus, UniProt P29121); biochemical): 70 nM

CC1=CC(C)=[N+]2C1=Cc1ccc(CCC(=O)NCCOCCOCCOCCOCC(=O)N[C@H](C(=O)N3C[C@H](O)C[C@H]3C(=O)NCc3ccc(-c4scnc4C)cc3)C(C)(C)C)n1[B-]2(F)F
Kd (von Hippel-Lindau disease tumor suppressor, with elongin B/C (VHL, Homo sapiens, UniProt P40337); binding, TR-FRET; 180 min, together with: BODIPY FL VH032): 2.98 nM

Cc1ccccc1N1C(=O)/C(=C/c2ccc(OCc3cccc(C(=O)O)c3)cc2)C(=O)NC1=S
Ki (PTPN22 (Homo sapiens, UniProt Q9Y2R2); enzyme activity, inhibitor, fluorescence): 384 nM

CCC[N+](C)(C)CCc1c[nH]c2cccc(O)c12
Ki (HTR1D (Homo sapiens, UniProt P28221); ligand displacement, radioligand): 2400 nM

CNC(C)C(=O)c1ccc(OC(F)(F)F)cc1 (stereo not drawn)
EC50 (Slc6a3 (Rattus norvegicus, UniProt P23977); dopamine release, releaser; rat brain synaptosomes; together with: [3H]dopamine): > 4000 nM

N=C(N)NCCCCC(=O)NCC1(Nc2ccccc2)CCN(Cc2ccccc2)CC1
Ki (NPFFR1 (Homo sapiens, UniProt Q9GZQ6); cell-free assay): 2450 nM

CC(=O)NC1C(OC2C(O)C(CO)OC(OC3C(O)C(CO)OC(OC4C(O)C(O)OC(CO)C4O)C3NC(C)=O)C2OC2OC(C)C(O)C(O)C2O)OC(CO)C(O)C1O (stereo not drawn)
Kd (slo; binding): 105 nM

CCCCCn1cc(C(=O)c2ccc3ccccc3c2)c2ccccc21
EC50 (CNR2 (Homo sapiens, UniProt P34972, I110L); G protein activation, agonist, BRET): 49 nM

CCCCCc1cc(O)c2c(c1)OC(C)(C)C1CCC(C)=CC21 (single isomer, unassigned; (-))
Ki (Cytochrome P450 1A2 (CYP1A2, Homo sapiens, UniProt P05177); enzyme activity, inhibitor; human, liver microsomes; pH 7.4): 2000 nM

CCC[C@H](C(=O)c1ccccc1)N1CCCC1
IC50 (SLC6A4 (Homo sapiens, UniProt P31645); transporter uptake, inhibitor, radiometric): 628000 nM

OP(O)(=S)O[C@H]1[C@H](OP(O)(O)=S)[C@@H](OP(O)(O)=S)[C@H](OP(O)(O)=S)[C@@H](OP(O)(O)=S)[C@H]1OP(O)(O)=S
Kd (Toxin B (tcdB, Clostridioides difficile, UniProt P18177); binding, ITC): 413 nM

CCOC(=O)C1C(OC(c2ccc(Cl)cc2)c2ccc(Cl)cc2)CC2CCC1N2C (single isomer, unassigned)
Ki (CHRM2 (Homo sapiens, UniProt P08172); ligand displacement, radioligand): 3120 nM

CCCCCc1cc(O)c2c(c1)OC(C)(C)C1=C2[C@@H](O)[C@@](C)(O)CC1
Ki (Si (Rattus norvegicus, UniProt P23739); enzyme activity, inhibitor): 305000 nM

Repeated from above:
CC(=O)NC1C(OC2C(O)C(CO)OC(OC3C(O)C(CO)OC(OC4C(O)C(O)OC(CO)C4O)C3NC(C)=O)C2OC2OC(C)C(O)C(O)C2O)OC(CO)C(O)C1O (stereo not drawn)
Kd (slo; binding): 105 nM

CCCCCn1cc(C(=O)c2ccc3ccccc3c2)c2ccccc21
EC50 (CNR2 (Homo sapiens, UniProt P34972, I110L); G protein activation, agonist, BRET): 49 nM
